# Measurements collected from several papers.
# Parts stem from different laboratories: compare values within a part only. Positions count from the first letter of the parent shown.
# Chain of UniProt Q9C0B0 (30-357, looked up): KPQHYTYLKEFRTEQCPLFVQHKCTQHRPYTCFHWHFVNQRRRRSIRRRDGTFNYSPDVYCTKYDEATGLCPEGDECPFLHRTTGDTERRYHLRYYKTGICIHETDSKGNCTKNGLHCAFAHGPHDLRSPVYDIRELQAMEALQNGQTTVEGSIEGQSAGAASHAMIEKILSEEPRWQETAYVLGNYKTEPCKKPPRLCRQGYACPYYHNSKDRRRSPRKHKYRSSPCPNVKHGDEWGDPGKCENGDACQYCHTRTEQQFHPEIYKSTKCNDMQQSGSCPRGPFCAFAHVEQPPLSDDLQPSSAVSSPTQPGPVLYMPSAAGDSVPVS

# Sample 1 — method: RNA Bind-n-Seq; molecule type: RNA; medium: in vitro; tested at: 365 nM; reference: no-protein control; reading: higher = stronger binding
# Target: RNA binding protein fox-1 homolog 2, RRM domain, GST-SBP tag (RBFOX2, Homo sapiens, UniProt O43251-10, residues 100-194)
# Notes: natural RNA segment, single round, ends assumed
# Constant ends, left off below: GGGAGUUCUACAGUCCGACGAUC … UGGAAUUCUCGGGUGCCAA
# Residues (chain): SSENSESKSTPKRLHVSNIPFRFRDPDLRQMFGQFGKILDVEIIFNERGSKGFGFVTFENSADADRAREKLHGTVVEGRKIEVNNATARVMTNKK
Oligonucleotide,RBNS enrichment (R)
AAGGAGUGGGGCAGGAAGGGUCUCCCAGGCACGCUGUGCUCACCCCCAGGGCCACAUCUCAGCUCUCCAGCCCUGGAUUCUUUCCUGUCUUCAUUUUAUGAGUUGUUGCC,0.584
CCACCUGCCCCCUGCGUAGGCACCCAGACUUGGAGAGACCCGUCUGCUGUUAAUACUUCCAUCCUCUUCCUUCCCAAAGAGCAGAUCCCAAGGCAUUUACUCCUUGGUCU,0.505
UGUGAAGAGCAUCUCAGAUAAGGGUUCUUAAAAGGGGGGAUGGGCAGAGUACAGUAGAGGAGGACUUGUUAGGUUCAUUGUUCCCCGGAAGAAGCUUCCUGCAAUGCCCA,0.751
CGAAUUCAUUUUGUAAAUAAUGUUCAACGUUAAGAAUACCUAUAUUCCUUUUGUAGAUGAGUAUGAUUUUGAAACUGAAGAAAUUAAUACAGAGGCAAGAUUUUAGGAGU,0.31
ACUUCUCCUGGAUCCAACCUGACAGGAGAUGACUGGAUUGCUGGGGUAGAGAAGGAAAGGCUGUCCCCGACAGCAGCCAGAAGUCUGUGGGAGUGAGGUCAUUCCUGACC,0.292
UUAUAGGAGUUGCUCCUCUUUGCAUGGUUCUGUUCUAUAGAAGUGACUGAUAACAGCCAUUGCACUGAAGUGUGAGCUGUCCGUGUGUGACUUUAUAAAUACAGUUUUAA,1.29
AAAUGAAUUUUUACUAUGGCAGAUAUGGUAUGGAUCGUAAAAUUUUAAGCACUAAAAAUUUUUUCAUAACCUUUCAUAAUAAAGUUUAAUAAUAGGUUUAUUAACUGAAU,2.5
UGUCACGGCUAAUGUGAAAUCUCUUCCCGUGGCGCCCAUCCUCUGACUCUGCAGUGCCAGCUUGGACAGAUUGAGGUCUCUGUGGCUUUGGUGACCCUGCUUAAGCAUUC,0.45
AGCUGCUCUCAGGCACCCCCUUCUUCAUUGCUCUCUCCAGAAAGGGUUGCUAGCCUUAACUUCAGCUGGUGCAAAACAUCUGACUGUAGCCGAACUUCAGCCAUCAGAUC,0.444
CAAGUGUUCUAACUAAAUGUGUGAGCUGUAGUUCUUGAUGUUGUAUAACUAAGCCUGUAAUUGGGCUGGUUUCUCUUACACCCUAGCACAGUUAAAAAAUGAAGUACUGU,0.409
GAGUUCAAUUCCCAGCAACCACAUGAUGGUUCAUAAUGGGAUCUGAUGCCCUCUUCUGGCAUGCAGGCAGAAUACUAUAUAUAGUAAGUAAAUCGUAAAGAGAAAGGAAU,2.92
UGUACUUAAGUGCUGAUGACUGUUAGCCAGUUUACAACUUUUUACCAUCGAUGUACACAUUUGAUAUUUGUGCAGUAAAUAGACUGUACCUAUAAAAAAUUUUAUUGAUG,0.407

# Sample 2 — method: protein binding microarray; molecule type: double-stranded DNA, one strand shown; medium: in vitro; tested at: not given; reference: not given; reading: higher = stronger binding
# Target: Histone acetyltransferase KAT6A, both winged helices, GST fusion (KAT6A, Homo sapiens, UniProt Q92794, residues 1-181)
# Notes: 8-mer, flanks averaged, mean of 2 arrays, mostly near background
# Construct (chain): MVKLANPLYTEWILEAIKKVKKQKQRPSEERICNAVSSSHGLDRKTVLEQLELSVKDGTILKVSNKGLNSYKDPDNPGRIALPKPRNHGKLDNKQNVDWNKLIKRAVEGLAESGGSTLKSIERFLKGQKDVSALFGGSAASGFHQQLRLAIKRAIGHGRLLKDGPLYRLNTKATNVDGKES
Oligonucleotide,E-score
CTCTTCCC,-0.06
AGATTTAG,-0.243
TTAGCTAA,-0.208
CGGCCTGC,0.191
AATTATCG,0.0271
GTGTAAGA,-0.124
TAGACCCA,-0.278
AATTCTGA,-0.0481
ACTCGACG,0.105
ACCCTTTC,-0.0346
TGGTACCA,-0.107
CAGAGTGG,-0.223
CTCTTATA,0.037
CCATCCAG,-0.134
GGAGCACA,-0.13
CGTGTGAC,0.12
CGAGGCGC,0.289
AGATTAGA,-0.156
CTCTCCAA,-0.123
ATTCCGCG,0.239
AATTGAGA,-0.0308
ATTTATGA,0.0385
CCATCTTC,-0.039
CGGAGGCA,0.0503
CGTGTTGA,-0.0374

# Sample 3 — target: TEF, bZIP domain (human); method: DHFR protein complementation; medium: yeast; reference: wild-type JUN-FOS pair; reading: higher = stronger binding
# Notes: single substitutions, most at no-binding floor
# Parent: JUN, bZIP domain (human); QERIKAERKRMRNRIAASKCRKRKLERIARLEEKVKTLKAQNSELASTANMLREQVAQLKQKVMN; partner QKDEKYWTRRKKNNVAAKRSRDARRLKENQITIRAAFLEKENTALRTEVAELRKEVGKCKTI
Variant,binding fitness
E44T,-1.31 natural log
E33R,-1.47 natural log
K34P,-1.48 natural log
K36F,-1.58 natural log
K39H,-1.54 natural log
E44P,-1.44 natural log
R53K,-1.23 natural log
V35T,-1.52 natural log
A57T,-1.12 natural log
A40D,-1.45 natural log
E44R,-1.29 natural log
E54I,-1.33 natural log
A29T,-1.44 natural log
Q41K,-1.5 natural log

# Sample 4 — method: DHFR PCA, dose-response; medium: yeast; notes: Hill fit, mean, not affinity; added: (+)-ABA, dose series; reading: lower = more sensitive
# Target: ABI1, truncated, D143A, DHFR fusion (Arabidopsis thaliana, UniProt P49597)
# Parent: PYL1, truncated, DHFR fusion (Arabidopsis thaliana, UniProt Q8VZS8); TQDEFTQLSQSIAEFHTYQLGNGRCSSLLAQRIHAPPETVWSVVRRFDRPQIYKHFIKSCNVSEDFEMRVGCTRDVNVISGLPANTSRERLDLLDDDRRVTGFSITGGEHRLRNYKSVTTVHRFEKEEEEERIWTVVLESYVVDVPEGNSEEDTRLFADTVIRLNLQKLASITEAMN
Variant,ABA EC50 [µM]
E151V,2.98
R69E,2.29
L8P,133
L94K,583
T120G,948
E147H,2.8
L112I,135
D159M,595
R45V,333
F66R,7.12
T17F,31.4
Q31H,7.52
R24A,6.45
P83S,79.4
R123M,4.63

# Sample 5 — method: RNA Bind-n-Seq; molecule type: RNA; medium: in vitro; tested at: 200 nM; notes: whole 134-nt RNA, ends assumed; added: 150 mM LiCl; reference: input library; reading: higher = stronger binding; all molecules: 7-deaza-guanosine replaces G
# Target: Fragile X messenger ribonucleoprotein 1, C-terminal low-complexity region (Fmr1, Mus musculus, UniProt P35922)
# Constant ends, left off below: GGGAGUUCUACAGUCCGACGAUC … UGGAAUUCUCGGGUGUCAAGG
Oligonucleotide,log2 enrichment
AAGUCCUGUGCUACACAUCGUAUGUACCGAAUCGGGUUUGGGUGGGAAAAAAAGGGAAAGUAUUAUGUUACGCCGUUCGGAUCUGCACUU,-0.967
GCAGGAAGUAAAAACAAAUGGAAAUGCUUCGGAUUGUGGCAGGGGUGGGGGUUGCUAAGGAAAGGGUGGGAUGGGAGUGGGUAAAGAGUU,1.55
UGGCCCUGGUGGCAUGCGGGGAGGAAGAGGUGGCCUCAUGGAUCGUGGUGGUCCCGGUGGAAUGUUCAGAGGUGGCGGUGGUGGAGACAG,0.0149
UGGCCCUGGUGGCAUGCGGGGAGGAAGAGGUGGCCUCAUGGAUCGUGGUGGUCCCGGUGGAAAGUUCAGAGGUGGCCGUGGUGGAGACAG,0.0825
UCAAGUCCUGUGCUACACAUCGUAUGUACCGAAUCGGUGGUUUGGUUUUUUUGGAAAGUAUUAUGUUACGCCGUUCGGAUCUGCACUUCC,-0.724
UCAAGUCCUGUGCUACACAUCGUAUGUACCGAAUCGGGUGGGUGGGUUUUUGGGAAAGUAUUAUGUUACGCCGUUCGGAUCUGCACUUCC,-2.07
CCUCAAGUCCUGUGCUACACAUCGUAUGUACCGAAUCGGAGGUGGAAAAAGGAAAGUAUUAUGUUACGCCGUUCGGAUCUGCACUUCCAG,-0.839
GCAGGAAGUAAAAACAAAUGGAAAUGCUUCGGAUAGUGGCAGGGGUGGGGGUUGCUAAGCAAAGGGUGGGAUGGGAGUGGGUAAAGAGUU,1.58
UCCUGUGCUACACAUCGUAUGUACCGAAUCGGGGUUUUUUGGGUUUUUUGGUUUUUUGGGAAAGUAUUAUGUUACGCCGUUCGGAUCUGC,-0.401
UCCUGUGCUACACAUCGUAUGUACCGAAUCGGUUUUUUGGGGUUUUUUGGGGUUUUUUGGAAAGUAUUAUGUUACGCCGUUCGGAUCUGC,0.337
UGGGAGGUGGAUUUUGUUUAUUUUUUUAGCUCAUUUCCAGGGGUGGGAAUUUUUUUUUAACAUGUGUCAUGAAUAAAGUUGUUUUUGAAA,-0.505

# Sample 6 — target: CCND1, cyclin fold, Cln2 fusion (human); method: yeast growth competition, sequencing; medium: yeast; notes: strong parent motif; reference: not given; reading: higher = stronger binding
# Parent: RBL2 docking peptide (human); STTRRRLFVENDS; partner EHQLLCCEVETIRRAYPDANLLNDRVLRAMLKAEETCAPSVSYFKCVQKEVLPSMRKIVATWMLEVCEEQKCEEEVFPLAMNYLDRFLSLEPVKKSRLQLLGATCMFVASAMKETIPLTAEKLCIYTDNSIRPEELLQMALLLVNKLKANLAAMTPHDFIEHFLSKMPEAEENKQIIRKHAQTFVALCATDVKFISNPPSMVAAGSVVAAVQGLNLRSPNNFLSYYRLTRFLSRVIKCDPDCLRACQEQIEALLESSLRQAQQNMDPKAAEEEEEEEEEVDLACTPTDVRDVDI
Variant,normalised enrichment score
S13Q,0.783
S1V,0.412
R4A,2.04
R6D,0.829
R5G,0.0473
L7D,0.515
S13F,1.2
V9R,0.326
R6K,1.44
R5D,0.172
S13L,0.64
R6I,0.692
N11R,0.391
V9P,0.651
S13T,0.478
R5L,0.748
T2V,0.797

# Single results of other studies
Molecule,target,test,system,setting,how to read,measurement,result
GGGAGUUCUACAGUCCGACGAUCCCGAAAGGCCAAAUUCCCUCCUCCCUUCUACUGCUUCUACCAACUGGAAGCACAGAAAACCCGAAUUUCAUUUAUUUUGUUUUUAAAAUAUAUAUGUUGAUUUCUUGUAACAUCCAACCGCAACAGAGGAUUGAGCAUCA,"RING finger protein unkempt homolog, zinc fingers 1-6, SBP tag (UNK, Homo sapiens, UniProt Q9C0B0, residues 30-357)",RNA Bind-n-Seq,"RNA, in vitro","100 nM, RNA with constant flanks, ends assumed","reference: input RNA pool, higher = stronger binding",bound/input enrichment,0.381 ratio
"PhoQ, residues 284 288 289 292 302 303 QWQEDG","PhoP, residues 12 14 15 18 19 NHTVL (Escherichia coli, UniProt P23836)","Sort-seq, refers to: YFP reporter",E. coli,"PhoQ-PhoP variant library, added: 10 µM Mg2+","reference: high Mg2+ state, higher = stronger signaling",fold induction,0.916

# Some of these lines once more (sample 4):
Variant,ABA EC50 [µM]
L8P,133
T120G,948
Q31H,7.52
L94K,583
R45V,333
E151V,2.98
D159M,595
L112I,135
R24A,6.45
T17F,31.4
R123M,4.63
R69E,2.29
F66R,7.12
